# Measured values from different studies.
# Protocols differ between the studies behind these lines. ± marks the error that the study gave.
# Cell line: A549
Compound,assay,conditions,scale,quantity,value
CC(=O)OC[C@H]1O[C@@H](Sc2sc(C(=O)c3ccc(C)cc3)c(N)c2-c2nc3ccccc3s2)[C@H](OC(C)=O)[C@@H](OC(C)=O)[C@H]1OC(C)=O,SRB,"10 µM, 48 h",,growth,89.2%
[Cl-].[Cl-].[Ru+2].c1ccc(-c2ccccn2)nc1.c1ccc(-c2ccccn2)nc1.c1ccc(-c2ccnc3c2ccc2c(-c4ccccc4)ccnc23)cc1,"oxygen consumption rate, Seahorse extracellular flux","1 h, dark",,lowest concentration inhibiting OCR,> 1 µM
COc1ccc(/C=C/C2=[N+]3C(=C(C=O)c4c(C)c(Br)c(/C=C/c5ccc(OC)cc5)n4[B-]3(F)F)C(C)=C2Br)cc1,resazurin,added: 645 nm light,baseline: dark over light IC50,phototoxicity index,16 ± 12
O=C(CSC(=S)N1CCCC1)Nc1ccc2c(c1)C(=O)c1ccccc1C2=O,phospho-flow cytometry,"25 µM, high serum",baseline: vehicle,phosphotyrosine level,~2 fold decrease
FC(F)(F)c1ccnc(-c2cc(C(F)(F)F)ccn2)c1.FC(F)(F)c1ccnc(-c2cc(C(F)(F)F)ccn2)c1.[Cl-].[Cl-].[Ru+2].c1csc(-c2nc3c4cccnc4c4ncccc4c3[nH]2)c1,cell viability,"100 J/cm2 light, normoxia, added: visible light 400-700 nm",baseline: dark over light EC50,phototherapeutic index,7
COc1ccc(/C=C/C2=[N+]3C(=C(CO)c4c(C)cc(/C=C/c5ccc(OC)cc5)n4[B-]3(C)C)C(C)=C2)cc1,resazurin,added: 645 nm light,baseline: dark over light IC50,phototoxicity index,67 ± 26
C=C(CC)C(=O)c1ccc(OCC(=O)NCCNC(=O)COc2ccc(C(=O)C(=C)CC)c(Cl)c2Cl)c(Cl)c1Cl,"cell growth, CCK-8",72 h,,IC10,~700 nM
O=[N+]([O-])c1ccc(Cn2cc(Cn3cc(CO)nn3)nn2)cc1,,"10 µM, 30 min",,cells with cytosolic GFP-PLCδ1-PH,> 83%
C[C@@H]1O[C@H]2O[C@@H]3C4(O)C(=O)c5cccc(O)c5C(=O)C4(O)O[C@]3(C)[C@]21O (stereo partly shown),"cell growth or viability, MTT",48 h,,EC50,46.7 µg/mL
C[C@]1(CO)C2CC[C@@]3(CO3)[C@@H](/C=C/C3=CCOC3=O)[C@]2(C)CC[C@H]1O (stereo partly shown),"cell growth or viability, MTT","20 µM, 48 h",,inhibition,20.5%
Nc1cccc[n+]1Cc1cccc(C[n+]2ccccc2N)c1,flow cytometry,"15 µM, 24 h",,cell population in G2/M phase,24.8%
COc1ccc(C([O-])=CC(=O)c2ccc(C(C)(C)C)cc2)cc1.[Cl-].[Ru+2].c1ccc(-c2cccc(-c3ccccn3)n2)nc1,"oxygen consumption rate, Seahorse extracellular flux","1 h, dark",,lowest concentration inhibiting OCR,10 µM
COc1ccc([C@@H]2CC(=O)c3c(O)cc(O[C@@H]4O[C@H](CO[C@@H]5O[C@@H](C)[C@H](O)[C@@H](O)[C@H]5O)[C@@H](O)[C@H](O)[C@H]4O)cc3O2)cc1O,"cell migration, scratch","150 µg/mL, 72 h",,gap closure,10.1 ± 1.64%
CN(C)c1cccc2c(S(=O)(=O)NCCCCCC(=O)NO)cccc12,"cell cycle, propidium iodide flow cytometry",10 µM,,cells in G2 phase,15.3%
Cc1cccc(-c2cccc(C)n2)n1.[Cl-].[Cl-].[Ru+2].c1ccc(-c2ccccn2)nc1.c1ccc(-c2ccccn2)nc1,"oxygen consumption rate, Seahorse extracellular flux","1 h, dark",,lowest concentration inhibiting OCR,> 25 µM
Cn1nc(I)c2c(N)ncnc21,cell growth or viability,,,EC50,1000 nM
Cc1cccc(-c2cccc(C)n2)n1.Cc1cccc(-c2cccc(C)n2)n1.[Cl-].[Cl-].[Ru+2].c1ccc(-c2ccnc3c2ccc2c(-c4ccccc4)ccnc23)cc1,"cytotoxicity, resazurin","72 h, light irradiation 5 min, λ>400 nm",,EC50,3900 ± 1100 nM
Cc1ccc2ccc3ccc(C)nc3c2n1.Cc1ccc2ccc3ccc(C)nc3c2n1.Clc1ccc(-c2cc(-c3ccccn3)nn2-c2ccccc2)cc1.[Cl-].[Cl-].[Ru+2],"oxygen consumption rate, Seahorse extracellular flux","1 h, dark",,lowest concentration inhibiting OCR,> 10 µM
[Cl-].[Cl][Ru-]1[S+]=C(N2CCCC2)N[N+]1=Cc1ccc(N(c2ccccc2)c2ccccc2)cc1.c1ccccc1,,"20 µM, 24 h, then 10 days growth",,colony formation,inhibited
COc1cc(CNC(=O)C[C@H](C)CCC=C(C)C)ccc1OCc1cn(-c2ccc(Cl)c(Cl)c2)nn1,flow cytometry propidium iodide,"10 µM, 48 h",,cells in G0/G1 phase,34.3%
CCCC1OC2CC3C4CCC5=CC(=O)C=CC5(C)C4C(O)CC3(C)C2(C(=O)COC(=O)CN)O1 (stereo not shown),"IL-6 release, inhibitor, ELISA","1 nM, 24 h, LPS-stimulated",,inhibition,> 50%
[Cl-].[Cl-].[Ru+2].c1ccc2nc(-c3ccc4ccccc4n3)ccc2c1.c1ccc2nc(-c3ccc4ccccc4n3)ccc2c1.c1cnc2c(c1)ccc1cccnc12,"oxygen consumption rate, Seahorse extracellular flux","1 h, added: indigo light 450 nm, 29.1 J/cm2",,lowest concentration inhibiting OCR,10 µM
[Cl-].[Cl-].[Ru+2].c1ccc(-c2ccccn2)nc1.c1ccc(-c2ccccn2)nc1.c1cnc2c(c1)ccc1cccnc12,,3 µM,,maximum intracellular concentration,~40 µM
CCCCN(CCCC)CC(O)COc1c2ccoc2c(OC)c2oc(CC)cc(=O)c12 (stereo not shown),annexin V/7-AAD flow cytometry,"IC50, 72 h",,late apoptotic or necrotic cells,39.7%
CCN1CCN(Cc2ccc(C(=O)Nc3ccc(C)c(NCc4cnc5[nH]ccc5c4OC)c3)cc2C(F)(F)F)CC1,cell growth or viability,48 h,,GI50,2290 nM
CC(=O)c1cccc(NC2C(N)C(NC(=O)N(C)C)(C(C)O)C(O)C2(O)COC(=O)c2c(C)cccc2O)c1 (stereo not shown),cytotoxicity,free compound,,EC50,32 nM
C[C@@H]1O[C@@H](OC[C@H]2O[C@@H](OCCc3ccc(O)c(O)c3)[C@H](O)[C@@H](O)[C@@H]2OC(=O)/C=C/c2ccc(O)c(O)c2)[C@H](O)[C@H](O)[C@H]1O,western blot,concentration not given,,H3K4me1 accumulation,233%
Nc1cccc(S(=O)(=O)N2CCCN(S(=O)(=O)c3ccc4c(c3)OCCO4)CC2)c1,U-13C6 glucose GC-MS,"100 µM, 3 days",,de novo lipogenesis,decreased
Cn1c2ccc(Cl)c(=O)c-2nc2ccccc21,"cytotoxicity, WST-8",,baseline: IC50 MRC5 over IC50 A549,selectivity index,5.8
CCN1CCC2(CC1)C/C(=N\NC(=O)Nc1ccccc1)c1ccccc1O2,"PI staining, flow cytometry","concentration not given, %G0-G1",,cell cycle distribution,56.2%
CC12COC(c3ccccc3)OC1CCC1(C)C(C=CC3=CCOC3=O)C(CO)=CCC21 (stereo not shown),"cell growth or viability, MTT","20 µM, 48 h",,inhibition,32.8%

# Repeated from above:
Compound,assay,conditions,scale,quantity,value
COc1ccc(/C=C/C2=[N+]3C(=C(C=O)c4c(C)c(Br)c(/C=C/c5ccc(OC)cc5)n4[B-]3(F)F)C(C)=C2Br)cc1,resazurin,added: 645 nm light,baseline: dark over light IC50,phototoxicity index,16 ± 12
O=C(CSC(=S)N1CCCC1)Nc1ccc2c(c1)C(=O)c1ccccc1C2=O,phospho-flow cytometry,"25 µM, high serum",baseline: vehicle,phosphotyrosine level,~2 fold decrease
FC(F)(F)c1ccnc(-c2cc(C(F)(F)F)ccn2)c1.FC(F)(F)c1ccnc(-c2cc(C(F)(F)F)ccn2)c1.[Cl-].[Cl-].[Ru+2].c1csc(-c2nc3c4cccnc4c4ncccc4c3[nH]2)c1,cell viability,"100 J/cm2 light, normoxia, added: visible light 400-700 nm",baseline: dark over light EC50,phototherapeutic index,7
COc1ccc(/C=C/C2=[N+]3C(=C(CO)c4c(C)cc(/C=C/c5ccc(OC)cc5)n4[B-]3(C)C)C(C)=C2)cc1,resazurin,added: 645 nm light,baseline: dark over light IC50,phototoxicity index,67 ± 26
